# Results pooled from the literature.
# Parts stem from different laboratories: compare values within a part only.

# Series 1 — technique: RNA Bind-n-Seq; molecule type: RNA; medium: in vitro; tested at: 1 µM; notes: whole 134-nt RNA, ends assumed; with: 150 mM KCl; baseline: input library; direction: higher = stronger binding
# Target: Ras GTPase-activating protein-binding protein 1, C-terminal RGG region (G3BP1, Homo sapiens, UniProt Q13283)
# UniProt Q13283, sequence (whole entry, looked up): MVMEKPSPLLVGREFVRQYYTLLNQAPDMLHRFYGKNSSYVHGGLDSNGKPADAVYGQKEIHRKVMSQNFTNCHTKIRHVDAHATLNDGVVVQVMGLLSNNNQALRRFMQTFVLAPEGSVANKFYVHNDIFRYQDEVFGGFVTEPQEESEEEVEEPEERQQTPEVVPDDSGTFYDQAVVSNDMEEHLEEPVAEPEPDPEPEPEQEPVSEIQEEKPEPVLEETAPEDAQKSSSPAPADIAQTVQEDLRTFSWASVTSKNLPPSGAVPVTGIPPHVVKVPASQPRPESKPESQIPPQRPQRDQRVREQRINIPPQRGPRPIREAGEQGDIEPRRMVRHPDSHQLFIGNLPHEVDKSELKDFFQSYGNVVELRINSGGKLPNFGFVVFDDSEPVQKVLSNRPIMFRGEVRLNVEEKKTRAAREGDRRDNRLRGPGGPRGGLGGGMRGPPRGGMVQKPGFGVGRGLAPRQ
# Constant ends, left off below: GGGAGUUCUACAGUCCGACGAUC … UGGAAUUCUCGGGUGUCAAGG
Sequence,log2 enrichment
CCUGUGCUACACAUCGUAUGUACCGAAUCGGGGUUUGGGGUUUUUGGGGAAAAAAAGGGGAAAGUAUUAUGUUACGCCGUUCGGAUCUGC,0.899
ACCAUGCAGGUGGGCAUCUUUGGGAAGUGGGGCAAGGGGGGGAUAGGGAGGGGGGUAACACUUUGGGAACAGGUGGUCCCAAAUCGUUUC,-0.745
CAAGUCCUGUGCUACACAUCGUAUGUACCGAAUCGGGGCCCGGGCCCGGGGCCCGGAAAGUAUUAUGUUACGCCGUUCGGAUCUGCACUU,-2.22
CCUGUGCUACACAUCGUAUGUACCGAAUCGGGUUUUUUGGUUUUUUGGGGUUUUUUGGGGAAAGUAUUAUGUUACGCCGUUCGGAUCUGC,-1.73
UCAAGUCCUGUGCUACACAUCGUAUGUACCGAAUCGGUUUUUGGAGGUUUUUGGAAAGUAUUAUGUUACGCCGUUCGGAUCUGCACUUCC,-0.958
UGGGAGGUGGAUUUGGUUUAUUUUUUUAGCUCAUUUCCAGGGGUGGGAAUUUUUUUUUAAUAUGUGUCAUGAAUAAAGUUGUUUUUGAAA,2.97
AAGUCCUGUGCUACACAUCGUAUGUACCGAAUCGGUGGAAAAAAAGGUUUUUUUGGAAAGUAUUAUGUUACGCCGUUCGGAUCUGCACUU,-2.32
AAGUCCUGUGCUACACAUCGUAUGUACCGAAUCGGAAAAAAAGGUUUGGAAAAAGGAAAGUAUUAUGUUACGCCGUUCGGAUCUGCACUU,-2.2
UCCUGUGCUACACAUCGUAUGUACCGAAUCGGGAAAAAAGGAAAAAAGGAAAAAAGGGGAAAGUAUUAUGUUACGCCGUUCGGAUCUGCA,-1.83
CACAGACAACACGCACCCACACAGACACAGAGGGAAGGGGUUGGGAUGGGGACAGGGUGCACAGCAGGGCGGGGUCGGACCCCAGCCCCU,-0.915
UAACUUUAGAGGAGGAUCUGAUGGAUAUGGCAGUGGACGUGGAUUUGGGGAUGGCUAUCAUGGGUAUGGAGGAGGACCUGGAGGUGGCAA,-0.995
CCUCAAGUCCUGUGCUACACAUCGUAUGUACCGAAUCGGGCGGGGCGGGCGGAAAGUAUUAUGUUACGCCGUUCGGAUCUGCACUUCCAG,0.568
CCUGUGCUACACAUCGUAUGUACCGAAUCGGGGAAAAAAGGGGAAAAAAGGAAAAAAGGGGAAAGUAUUAUGUUACGCCGUUCGGAUCUG,-1.51
ACCAUGCAGGUGGGCAUCUUUGGGAAGUGGGGCAAGGGGGGGAUAGGGAGAAAGGUAACACUUUGGGAACAGGUGGUCCCAGGUCGUUUC,-1.11

# Series 2 — technique: RNA Bind-n-Seq; molecule type: RNA; medium: in vitro; tested at: 365 nM; baseline: no-protein control; direction: higher = stronger binding
# Target: RNA binding protein fox-1 homolog 2, RRM domain, GST-SBP tag (RBFOX2, Homo sapiens, UniProt O43251-10, residues 100-194)
# Notes: natural RNA segment, single round, ends assumed
# Constant ends, left off below: GGGAGUUCUACAGUCCGACGAUC … UGGAAUUCUCGGGUGCCAA
# Residues (chain): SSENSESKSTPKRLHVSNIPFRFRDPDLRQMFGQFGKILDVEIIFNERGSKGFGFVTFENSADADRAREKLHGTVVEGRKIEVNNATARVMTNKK
Sequence,RBNS enrichment (R)
AAAGAUAACCUAGUCGAUUGAAUUGGCCAUGGGAAGUUAGGUCACAGUCUUAUAAACAAAGUAAAUAGGACAGAGACUAAGUUUUAGGGAGACAUCUUGGCCUCCUAGGC,0.51
GCUCCCAGGCGCCCCAUGUCCUCACAGGCCAGGACGCCAUGGCAGGAUGGAGAGGACUUGGUGGAUUUUUGUUUCUUGCCUGACCUCAGUUUCAUGAAAGAAAGUGGAAG,0.3
GAUCCUUGCUUUCCUAGGUAAAUUAUGCUGGAGUGCUUCCAGUACUAAGGCCUCUUGAUUCUUUCCCCUUGAACACUAUGAGCACUGACAAAUCAUGGUAGAGGUGCCCA,0.533
CAUCCUUGUAAUACCUGAUUGAUCACACAGUGUUAGUGCUGGUCAGAGAGACCUCAUCCUGCUCUUUUGUGAUGAACAUAUUCAUGAAAUGUGGAAGUCAGUACGAUCAA,0.259
UUUGCGGCAAAAUAAAGGCCUAUUCUACUCUUAUUUAAAGUGAAACACUGUAUACUUGUUUCUCUCCAAAGCGAAAUUAAGUAUUUAUAAUUUCAAUUGCCUCGAUAAGU,0.348
GGCGAGGGGAGCCAUGCCAAGGGUCCAGGCUGCUUUAGGCCAUCUGUGCCCCACUCAUCUGGGGACAGAUGGUUUUUCUUUAUUGUAAAAUUGUGGACUUUUAAAACCUG,0.578
GCGCAUUGCUGUCUGUGCCUGUGUUGUGCACAGCCACAGUUAGUAACUGGGGAAGCUUCUGUACUAGUCUCCUUCAACGCAGCUGGCUUUGACUGAGUGCUUUGACAGUU,0.202
UCCCUGGCUCCCUCUACACGCACAUCCCAGAGCUGCCUCCCAGGGCUGGGAUCUCAGAGGUAGGGUGGCAGGGGCCUGGUAAGCAGAAUUCAAGCAGCACUUGGUCUUGG,0.468
CUCUUUACAAACUGGCAUCUUAAGUUUUAGUGCCAUGUCGCUGUAGUCUGCUGCUUUCCUGGGUGGAUGAACCUCUUUAUUAUGGUAACUUCUGUGCUGCUUUGCCCCUA,0.85
CUUUUCCCUGAGAUGGGGGCUCAGAGGGGGAAGGCCUGUGGCCUGCAUGCUUCCCGAUGGCCCACGGCAGGAGGUGUGUGGAAGUGUAAGGCCUAAGAUGCUCACAGAGG,27.6
UCAAUCAGUAUUUAUGUUGAAAUUUCUAACAUUAAAUCUAGUCUCUAUCCUGUUAAUUUAAUUUUUAAAUGCUUUAUCCAUUUGUGCAAAGGUAAACGCAGAUUGUAUCU,0.934
UGUAUUUCUUAGUAGUGAUACCAUUGAUCCUCUUACUUUUUUUACUCCAUUAAUACUAAUAAUUAUAUACUUUGCUGAGGAUCAAAACAGCCAAGAAAGGAAUUACUGCU,0.644

# Series 3 — technique: protein binding microarray; molecule type: double-stranded DNA, one strand shown; medium: in vitro; tested at: not given; baseline: not given; direction: higher = stronger binding
# Target: Histone acetyltransferase KAT6A, winged helix 2, GST fusion (KAT6A, Homo sapiens, UniProt Q92794, residues 85-181)
# Notes: 8-mer, flanks averaged, mean of 2 arrays, mostly near background
# Construct (chain): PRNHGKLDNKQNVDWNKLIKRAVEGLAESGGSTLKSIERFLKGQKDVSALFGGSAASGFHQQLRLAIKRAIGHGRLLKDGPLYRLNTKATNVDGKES
Sequence,E-score
GCAATTTA,0.0743
AACTCGTG,-0.13
ACAGATCC,0.0266
AACTTCAG,0.0555
ATTCGCGA,0.0184
ATCAGATA,-0.0818
AGATCACA,-0.13
ACGTCTGA,-0.0368
ACTTACGC,-0.0415
ACTGCTAA,0.0628
CGGCCCGA,0.215
AAGCAGAC,0.0279
CCGAAGGA,0.0245
AGGCTCTA,-0.069
GTCAACGA,-0.033
AAGTTTTG,0.0639
ATCGGCAG,0.191
GTTCCAGA,-0.026
AATGGTAA,-0.0151
CGTAGGAG,-0.123
AACGGTAA,-0.29
AGATAGTC,-0.198
TATTACGA,-0.00019
CTATTCCA,-0.00786
GTCTTATA,-0.286

# Series 4 — technique: protein-binding microarray; molecule type: double-stranded DNA, one strand shown; medium: in vitro; tested at: 2540 nM top; notes: 60-bp whole probe; with: salmon DNA 0.4 mg/ml; baseline: random background probes; direction: higher = stronger binding; constant ends, left off below: GCCTAGCAC … GTCTTGATTCGCTTGACGCTGCTG
# Target: Interferon regulatory factor 3, full length, phosphomimetic (IRF3, Homo sapiens, UniProt Q14653, residues 1-427, S386D/S396D/S398D/S402D/T404D/S405D)
# Construct (chain): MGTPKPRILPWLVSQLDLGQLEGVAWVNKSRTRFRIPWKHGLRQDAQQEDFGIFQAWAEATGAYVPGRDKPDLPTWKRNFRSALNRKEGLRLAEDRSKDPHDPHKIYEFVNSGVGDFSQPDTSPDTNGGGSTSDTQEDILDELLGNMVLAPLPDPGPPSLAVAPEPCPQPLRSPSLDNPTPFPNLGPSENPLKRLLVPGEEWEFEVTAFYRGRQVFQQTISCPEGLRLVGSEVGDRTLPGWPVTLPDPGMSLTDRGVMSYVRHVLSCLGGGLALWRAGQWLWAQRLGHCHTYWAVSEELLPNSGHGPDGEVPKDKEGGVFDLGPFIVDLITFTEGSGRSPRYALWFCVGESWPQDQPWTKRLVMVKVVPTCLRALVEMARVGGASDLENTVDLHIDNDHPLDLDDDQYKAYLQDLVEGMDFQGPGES
Sequence,fitted relative affinity [z-score]
GAAGAACTGAGACTGGAGACGTGCTAG,-0.49
GACGGTTTCCTTTCTCTGACGTGCTAG,12
TGTTATTAAAATTTCATGAAGTGCTAG,0.251
GACGATTTCATACTGGAGACGTGCTAG,1.56
AAAATTTTGCTTCTAGAACAGTGCTAG,1.01
GACGGTATCGGACTGGGGAAGTGCTAG,1.55
TTAGATCTCAGACTGAATTAGTGCTAG,0.143
ATAGGTATCGACACTGGGTTAGTGCTA,0.301
GACGGACTGGGGTCTGGGGACGTGCTA,-0.95
CTCTTTCTTTGCTTCACCCTGTGCTAG,2.09
TTAGAACTGAGTCTCGATTGGTGCTAG,-0.648
TTAGATATCGGAACTGGATTAGTGCTA,1.04
TCCTGGAGTCTATGCTGCTGGTGCTAG,-0.706
GACGGTTTCGGTCGCGGGACGTGCTAG,4.83
TTAGATCTCAGATTCGATTAGTGCTAG,1.41
TTAGGAGTGCTTTTCCTTTAGTGCTAG,0.972
TCTGCTTTGCCTTCAGCCCGGTGCTAG,-0.615
TTTGATCTCAGTATCGATTAGTGCTAG,1.22
TTAGTTATCAGTTTCGATTAGTGCTAG,5.35
GACGAACTGGGGACTGGAGATGTGCTA,-0.461
TTAGGTTTCGACTACCGGTTAGTGCTA,2.01
TCAGACTTGATTTTGGTACTGTGCTAG,0.155
CTTTTTTTCTTTTATTAGTGGTGCTAG,4.07
TCACTTCTGGTGCTCATCTGGTGCTAG,0.972
GTCGGACTGGGTTTCGGGACGTGCTAG,1.55

# Series 5 — technique: universal PBM; molecule type: double-stranded DNA, one strand shown; medium: in vitro; tested at: not given; direction: higher = stronger binding
# Target: Sal-like protein 4, full length isoform B (SALL4, Homo sapiens, UniProt Q9UJQ4-2, residues 1-616)
# Notes: 8-mer, flanks averaged, mean of replicates
# Residues (chain): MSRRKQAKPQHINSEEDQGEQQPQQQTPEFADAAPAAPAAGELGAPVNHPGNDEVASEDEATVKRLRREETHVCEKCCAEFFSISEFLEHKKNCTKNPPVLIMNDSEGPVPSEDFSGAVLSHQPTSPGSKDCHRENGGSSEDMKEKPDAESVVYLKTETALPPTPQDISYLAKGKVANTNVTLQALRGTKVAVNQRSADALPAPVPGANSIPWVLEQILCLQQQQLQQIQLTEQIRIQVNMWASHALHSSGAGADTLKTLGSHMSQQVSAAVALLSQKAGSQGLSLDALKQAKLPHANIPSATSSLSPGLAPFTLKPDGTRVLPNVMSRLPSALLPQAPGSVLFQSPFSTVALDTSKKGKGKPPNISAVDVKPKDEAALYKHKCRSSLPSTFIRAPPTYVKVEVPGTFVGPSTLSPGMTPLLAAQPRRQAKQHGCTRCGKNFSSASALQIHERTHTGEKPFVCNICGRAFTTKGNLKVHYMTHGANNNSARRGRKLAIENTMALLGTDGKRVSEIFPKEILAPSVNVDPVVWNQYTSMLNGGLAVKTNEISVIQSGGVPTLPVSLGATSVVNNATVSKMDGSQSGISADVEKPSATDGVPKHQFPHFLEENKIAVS
Sequence,E-score
AGGGCCAT,-0.212
CTAGCCTA,0.0177
ATCGCTGC,-0.203
ACTTTTCA,0.132
AGTTCGGG,-0.0496
CGCTGAGC,-0.22
CTCTAAGC,-0.0465
GTCCCGAA,-0.19
AGCCCTCA,-0.138
CCAACGGA,-0.239
AGAGTCCC,-0.192
AGCAGGAT,-0.114
GAGGACGA,-0.189
ACAGTACG,0.0977
GGTCCAGA,-0.197
AGAAATTC,0.0436
CCAATACA,0.236

# For quick reference, copied from above (series 3):
Sequence,E-score
ATCAGATA,-0.0818
AACGGTAA,-0.29
GTTCCAGA,-0.026
GTCTTATA,-0.286
ATTCGCGA,0.0184
CCGAAGGA,0.0245
ACGTCTGA,-0.0368
AGATCACA,-0.13
CGTAGGAG,-0.123
